Results gathered from unrelated publications.
Every numbered part comes from another study and shows a few of its results, in no order. ± marks the error that the study gave.
Sequence of UniProt Q8N4C8 (whole entry, looked up): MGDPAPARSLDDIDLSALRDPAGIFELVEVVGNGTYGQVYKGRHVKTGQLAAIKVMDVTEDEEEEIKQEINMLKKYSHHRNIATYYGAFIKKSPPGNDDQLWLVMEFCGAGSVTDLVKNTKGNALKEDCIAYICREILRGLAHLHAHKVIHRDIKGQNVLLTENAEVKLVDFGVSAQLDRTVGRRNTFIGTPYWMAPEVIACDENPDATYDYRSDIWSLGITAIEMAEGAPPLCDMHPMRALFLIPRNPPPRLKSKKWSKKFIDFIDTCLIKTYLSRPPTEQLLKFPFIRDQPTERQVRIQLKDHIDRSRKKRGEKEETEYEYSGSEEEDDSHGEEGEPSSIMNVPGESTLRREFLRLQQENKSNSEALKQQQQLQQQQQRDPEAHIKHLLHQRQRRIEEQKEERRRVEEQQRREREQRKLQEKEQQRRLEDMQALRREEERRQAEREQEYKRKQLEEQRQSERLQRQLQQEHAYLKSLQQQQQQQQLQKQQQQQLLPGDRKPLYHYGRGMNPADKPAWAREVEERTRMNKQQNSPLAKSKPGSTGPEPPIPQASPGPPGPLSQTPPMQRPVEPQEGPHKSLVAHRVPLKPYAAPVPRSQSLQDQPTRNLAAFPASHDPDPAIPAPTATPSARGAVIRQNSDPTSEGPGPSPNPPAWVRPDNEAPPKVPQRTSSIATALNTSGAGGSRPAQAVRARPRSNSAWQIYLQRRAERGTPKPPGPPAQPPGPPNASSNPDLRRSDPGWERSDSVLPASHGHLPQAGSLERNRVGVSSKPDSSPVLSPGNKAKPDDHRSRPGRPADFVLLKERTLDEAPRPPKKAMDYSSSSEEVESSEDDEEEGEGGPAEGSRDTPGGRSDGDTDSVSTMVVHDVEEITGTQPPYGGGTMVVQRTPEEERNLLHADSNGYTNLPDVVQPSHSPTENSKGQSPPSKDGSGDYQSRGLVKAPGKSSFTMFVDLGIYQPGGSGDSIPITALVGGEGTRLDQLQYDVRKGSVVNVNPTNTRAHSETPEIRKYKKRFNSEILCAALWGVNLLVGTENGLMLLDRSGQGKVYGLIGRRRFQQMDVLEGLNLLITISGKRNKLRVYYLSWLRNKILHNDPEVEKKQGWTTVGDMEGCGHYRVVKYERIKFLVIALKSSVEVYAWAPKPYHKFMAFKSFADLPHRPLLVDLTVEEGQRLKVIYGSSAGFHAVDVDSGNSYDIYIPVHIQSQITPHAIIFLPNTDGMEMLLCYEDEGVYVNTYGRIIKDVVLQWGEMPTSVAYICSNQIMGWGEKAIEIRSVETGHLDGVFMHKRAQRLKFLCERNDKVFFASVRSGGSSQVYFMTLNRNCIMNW
Sequence of UniProt Q7KZI7 (whole entry, looked up): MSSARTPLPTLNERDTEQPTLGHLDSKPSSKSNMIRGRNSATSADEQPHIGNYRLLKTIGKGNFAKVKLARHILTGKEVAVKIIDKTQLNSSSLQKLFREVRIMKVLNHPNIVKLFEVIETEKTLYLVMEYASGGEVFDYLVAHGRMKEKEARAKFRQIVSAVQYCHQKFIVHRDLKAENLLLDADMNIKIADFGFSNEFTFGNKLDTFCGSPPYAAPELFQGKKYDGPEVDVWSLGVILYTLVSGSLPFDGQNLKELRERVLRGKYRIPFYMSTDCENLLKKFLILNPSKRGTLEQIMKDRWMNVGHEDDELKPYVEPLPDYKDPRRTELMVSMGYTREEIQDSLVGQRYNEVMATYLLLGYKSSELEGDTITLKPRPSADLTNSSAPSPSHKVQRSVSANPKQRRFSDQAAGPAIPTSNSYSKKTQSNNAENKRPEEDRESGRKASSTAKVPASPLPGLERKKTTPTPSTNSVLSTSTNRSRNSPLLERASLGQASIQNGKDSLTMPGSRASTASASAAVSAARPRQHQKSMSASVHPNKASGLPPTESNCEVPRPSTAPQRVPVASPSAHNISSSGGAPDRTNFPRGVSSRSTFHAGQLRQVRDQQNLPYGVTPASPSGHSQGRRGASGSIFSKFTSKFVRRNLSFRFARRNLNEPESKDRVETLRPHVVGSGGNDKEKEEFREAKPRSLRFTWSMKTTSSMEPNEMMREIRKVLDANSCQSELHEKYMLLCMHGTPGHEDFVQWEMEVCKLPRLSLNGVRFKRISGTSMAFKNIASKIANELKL
Sequence of UniProt P35968 (whole entry, looked up): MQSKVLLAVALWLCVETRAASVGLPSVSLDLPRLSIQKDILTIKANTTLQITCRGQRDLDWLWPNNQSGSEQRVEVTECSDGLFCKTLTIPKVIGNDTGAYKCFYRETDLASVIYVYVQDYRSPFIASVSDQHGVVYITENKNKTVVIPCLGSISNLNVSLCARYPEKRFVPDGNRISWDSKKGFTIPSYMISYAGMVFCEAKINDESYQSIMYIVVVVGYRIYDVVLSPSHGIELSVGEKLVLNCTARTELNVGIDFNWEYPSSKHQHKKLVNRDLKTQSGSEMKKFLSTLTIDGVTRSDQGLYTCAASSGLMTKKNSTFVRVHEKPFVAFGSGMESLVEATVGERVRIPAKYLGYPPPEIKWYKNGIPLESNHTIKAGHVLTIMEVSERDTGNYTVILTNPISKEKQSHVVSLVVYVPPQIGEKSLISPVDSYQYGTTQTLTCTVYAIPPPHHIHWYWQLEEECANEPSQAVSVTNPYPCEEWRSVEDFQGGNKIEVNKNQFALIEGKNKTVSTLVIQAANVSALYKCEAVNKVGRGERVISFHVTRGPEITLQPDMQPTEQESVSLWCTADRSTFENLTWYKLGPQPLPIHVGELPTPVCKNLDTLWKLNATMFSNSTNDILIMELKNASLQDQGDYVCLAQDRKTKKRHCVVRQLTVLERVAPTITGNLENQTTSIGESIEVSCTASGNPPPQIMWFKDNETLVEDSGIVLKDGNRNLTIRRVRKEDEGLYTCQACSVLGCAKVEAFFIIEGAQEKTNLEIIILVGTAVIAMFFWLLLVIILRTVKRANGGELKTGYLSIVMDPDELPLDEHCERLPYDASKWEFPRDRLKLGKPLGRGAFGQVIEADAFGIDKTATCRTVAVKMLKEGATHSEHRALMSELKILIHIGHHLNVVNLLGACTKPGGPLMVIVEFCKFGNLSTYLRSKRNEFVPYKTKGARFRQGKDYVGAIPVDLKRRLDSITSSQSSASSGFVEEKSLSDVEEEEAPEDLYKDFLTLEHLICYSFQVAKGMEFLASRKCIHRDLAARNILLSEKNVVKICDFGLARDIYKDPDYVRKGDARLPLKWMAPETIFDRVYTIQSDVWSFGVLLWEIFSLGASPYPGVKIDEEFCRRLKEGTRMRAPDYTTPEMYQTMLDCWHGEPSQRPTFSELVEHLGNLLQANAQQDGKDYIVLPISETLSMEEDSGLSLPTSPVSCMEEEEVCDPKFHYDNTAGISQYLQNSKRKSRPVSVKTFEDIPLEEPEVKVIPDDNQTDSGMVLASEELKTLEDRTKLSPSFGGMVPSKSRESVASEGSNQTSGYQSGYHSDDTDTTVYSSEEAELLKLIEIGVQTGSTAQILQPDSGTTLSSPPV
Sequence of UniProt Q13233 (whole entry, looked up): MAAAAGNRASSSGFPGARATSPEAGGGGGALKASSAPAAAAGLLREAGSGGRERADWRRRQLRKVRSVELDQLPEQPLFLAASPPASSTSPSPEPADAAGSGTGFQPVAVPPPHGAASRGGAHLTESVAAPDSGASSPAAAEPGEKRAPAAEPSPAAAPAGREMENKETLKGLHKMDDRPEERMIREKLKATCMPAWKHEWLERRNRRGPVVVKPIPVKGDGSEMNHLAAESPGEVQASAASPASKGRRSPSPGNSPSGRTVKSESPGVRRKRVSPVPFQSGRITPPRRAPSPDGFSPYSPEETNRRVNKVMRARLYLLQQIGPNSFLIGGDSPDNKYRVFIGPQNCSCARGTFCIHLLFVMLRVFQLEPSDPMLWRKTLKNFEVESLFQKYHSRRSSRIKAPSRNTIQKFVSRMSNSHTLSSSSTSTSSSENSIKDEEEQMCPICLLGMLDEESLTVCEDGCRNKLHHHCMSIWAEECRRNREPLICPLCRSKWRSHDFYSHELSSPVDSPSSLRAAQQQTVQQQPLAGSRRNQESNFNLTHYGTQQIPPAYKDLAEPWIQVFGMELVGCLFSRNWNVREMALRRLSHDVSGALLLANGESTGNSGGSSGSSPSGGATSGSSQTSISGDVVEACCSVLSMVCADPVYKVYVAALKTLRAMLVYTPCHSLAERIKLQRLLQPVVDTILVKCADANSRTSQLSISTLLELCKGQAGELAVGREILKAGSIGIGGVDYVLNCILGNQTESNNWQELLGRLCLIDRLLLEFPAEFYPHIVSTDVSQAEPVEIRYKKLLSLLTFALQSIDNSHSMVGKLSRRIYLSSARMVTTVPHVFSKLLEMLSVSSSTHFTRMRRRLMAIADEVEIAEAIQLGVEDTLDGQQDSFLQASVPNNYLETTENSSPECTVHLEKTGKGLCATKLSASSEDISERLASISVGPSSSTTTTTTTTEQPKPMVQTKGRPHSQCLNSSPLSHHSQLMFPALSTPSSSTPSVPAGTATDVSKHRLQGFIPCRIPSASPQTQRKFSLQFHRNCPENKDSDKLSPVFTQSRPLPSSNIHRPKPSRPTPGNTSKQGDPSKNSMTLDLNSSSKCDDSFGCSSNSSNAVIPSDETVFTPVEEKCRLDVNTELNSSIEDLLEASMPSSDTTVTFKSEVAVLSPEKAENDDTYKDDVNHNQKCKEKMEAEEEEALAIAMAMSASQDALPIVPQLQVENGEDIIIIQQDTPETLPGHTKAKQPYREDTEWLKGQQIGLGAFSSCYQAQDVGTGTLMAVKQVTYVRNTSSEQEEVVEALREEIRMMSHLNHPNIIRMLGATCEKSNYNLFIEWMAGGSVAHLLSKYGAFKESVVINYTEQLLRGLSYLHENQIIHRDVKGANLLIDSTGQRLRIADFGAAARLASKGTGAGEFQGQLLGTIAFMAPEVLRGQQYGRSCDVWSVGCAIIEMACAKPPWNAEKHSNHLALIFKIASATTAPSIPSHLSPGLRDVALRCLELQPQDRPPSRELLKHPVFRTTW

Set 1
Compound: CCC(=O)N[C@H]1CC[C@@H](C(=O)N(C)c2ccc(-c3nc4ccccc4o3)cc2)C1
Effect on: cell-free assay
Technique: competition with immobilised ligand
Tested at: 1 µM
| target | remaining binding |
| --- | --- |
| ERBB2 (Homo sapiens, UniProt P04626) | 100% |
| MAP3K1 (Homo sapiens, UniProt Q13233) | 73% |
| PRKACB (Homo sapiens, UniProt P22694) | 100% |
| KIT (Homo sapiens, UniProt P10721, T670I/V559D) | 100% |
| KDR (Homo sapiens, UniProt P35968) | 75% |
| PIM1 (Homo sapiens, UniProt P11309) | 100% |

Set 2
SMILES: CC(=O)c1ccc(N2CCOCC2)cc1O
Effect on: enzyme activity
Mode: inhibitor
Tested at: 0.5 µM
Relative to: control
| target | remaining activity [%] |
| --- | --- |
| CAMK4 (Homo sapiens, UniProt Q16566) | 93 |
| MARK2 (Homo sapiens, UniProt Q7KZI7) | 107 |
| Cyclin-dependent kinase 1, with cyclin A (CDK1, Homo sapiens, UniProt P06493) | 99.8 |
| CLK4 (Homo sapiens, UniProt Q9HAZ1) | 111 |
| PRKG2 (Homo sapiens, UniProt Q13237) | 107 |
| MARK4 (Homo sapiens, UniProt Q96L34) | 99.4 |
| NEK3 (Homo sapiens, UniProt P51956) | 103 |
| MET (Homo sapiens, UniProt P08581) | 122 |
| MINK1 (Homo sapiens, UniProt Q8N4C8) | 94.3 |
| ROCK1 (Homo sapiens, UniProt Q13464) | 92.9 |
| PNCK (Homo sapiens, UniProt Q6P2M8) | 103 |
| RPS6KA4 (Homo sapiens, UniProt O75676) | 103 |
| DDR2 (Homo sapiens, UniProt Q16832) | 104 |

Set 3
Host: mouse
Medium: microsomes or S9
Tested at: 2 µM
Time: 0.5 h
| SMILES | remaining compound [%] |
| --- | --- |
| Cc1c(C)n(CCCN(C)C)c2ncn(CC(C)C)c(=N)c12 | 94.8 |
| O=C(NC1CCCC1)N1Cc2c(sc3c2CCCC3)-n2cccc2C1c1cccc(F)c1 (stereo not shown) | < 1 |
| N#Cc1ccc2ncc(/C=C/c3nc4ccccc4o3)n2c1 | 2.14 |
| N[C@@H](CC(=O)N1CCN(C(=O)OCc2ccccc2)CCN1C(=O)c1ccccc1)Cc1cc(F)c(F)cc1F | 7.36 |
| CCC(CC)CN(CC(=O)OC)S(=O)(=O)c1ccc(S(C)(=O)=O)cc1 | 99.9 |
| Nc1cccc(-c2c3c(=O)[nH][nH]c(=O)c3c3n2CCC3)c1 | > 99 |
| O=C(c1scc2c1OCCO2)N1CCCC(Cn2ccnc2)C1 (stereo not shown) | 63.2 |

Set 4
Compound: COc1cc(C(=O)N2CCC(N3CCN(C)CC3)CC2)ccc1Nc1ncc2c(n1)N(C)c1ccccc1C(=O)N2C
Effect on: kinase activity
| target | conditions | remaining activity |
| --- | --- | --- |
| RIPK2 | 1 µM | 103 ± 4% |
| FGF-R1 | 1 µM | 83 ± 4% |
| p38g MAPK | 10 µM | 106 ± 3% |
| LKB1 | 10 µM | 78% |
| CK2 | 10 µM | 80 ± 4% |

For quick reference, copied from above (set 2):
| target | remaining activity [%] |
| --- | --- |
| MARK4 (Homo sapiens, UniProt Q96L34) | 99.4 |
| NEK3 (Homo sapiens, UniProt P51956) | 103 |
